# Results collected from several papers.
# Each numbered part is a random draw from the data of one study; scales do not carry over between parts.

# Series 1
# Target: Prothrombin, mature alpha-thrombin (F2, Homo sapiens, UniProt P00734)
# Technique: aptamer microarray, sandwich
# Molecule type: DNA with 2'F-ANA
# Medium: in vitro
# Concentration: 200 nM
# Setting: whole 15-mer aptamer, many near background
# Added: Cy3 exosite-II aptamer, 400 nM
# Reading: higher = stronger binding
# Sequence: GGTTGGTGTGGTTGG
Modification,mean fluorescence intensity [a.u.]
2'F-ANA at 3 4 9 10 13 14 15,184
2'F-ANA at 1 4 5 6 11 12 13 15,64.1
2'F-ANA at 1 2 4 5 7 9 10 12 13 15,44.7
2'F-ANA at 1 2 3 6 7 11 12 15,262
2'F-ANA at 1 3 5 9 12,122
2'F-ANA at 2 3 4 5 6 7 10 11 13 14 15,58.3
2'F-ANA at 1 2 3 4 6 7 13 14 15,58.8
2'F-ANA at 2 5 6 7 10 11 12 13,55.1
2'F-ANA at 2 4 5 7 8 10 12 13 15,52.3
2'F-ANA at 1 2 6 7 8 9 12,305
2'F-ANA at 1 3 8 9 12,653

# Series 2
# Target: Sal-like protein 4, full length isoform B (SALL4, Homo sapiens, UniProt Q9UJQ4-2, residues 1-616)
# Technique: universal PBM
# Molecule type: double-stranded DNA, one strand shown
# Medium: in vitro
# Concentration: not given
# Setting: 8-mer, flanks averaged, mean of replicates
# Reading: higher = stronger binding
# Residues (chain): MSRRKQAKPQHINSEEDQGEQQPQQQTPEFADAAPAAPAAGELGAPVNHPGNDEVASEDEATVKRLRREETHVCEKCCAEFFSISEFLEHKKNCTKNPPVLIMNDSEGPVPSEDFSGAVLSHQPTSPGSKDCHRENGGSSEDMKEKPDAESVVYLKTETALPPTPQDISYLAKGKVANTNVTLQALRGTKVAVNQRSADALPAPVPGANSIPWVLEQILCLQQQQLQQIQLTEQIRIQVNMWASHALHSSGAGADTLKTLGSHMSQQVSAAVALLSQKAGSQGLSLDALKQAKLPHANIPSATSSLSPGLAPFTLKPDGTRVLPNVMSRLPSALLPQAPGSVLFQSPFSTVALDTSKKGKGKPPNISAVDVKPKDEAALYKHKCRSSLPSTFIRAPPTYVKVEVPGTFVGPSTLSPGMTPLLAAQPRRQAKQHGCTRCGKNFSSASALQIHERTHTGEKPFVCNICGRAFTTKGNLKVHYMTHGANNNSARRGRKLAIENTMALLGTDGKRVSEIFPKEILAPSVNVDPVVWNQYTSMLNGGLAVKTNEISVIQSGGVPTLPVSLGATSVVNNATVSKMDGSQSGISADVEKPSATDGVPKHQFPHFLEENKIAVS
Sequence,E-score
ACGCCCCA,-0.295
TCGTCTCA,-0.0445
CAAGACGC,-0.133
CCCTCGTA,-0.148
CTAATGAA,0.149
CTAATTGA,0.15
GTGTAGCA,-0.0707
GTCTTCGA,-0.0536
GAGAAGCC,-0.235
CCATAAAC,0.123

# Series 3
# Target: Interferon regulatory factor 7, full length, phosphomimetic (IRF7, Homo sapiens, UniProt Q92985, residues 1-503, S101K/S471D/S472D/S475D/S476D/S477D/S483D/S484D/S487D)
# Technique: protein-binding microarray
# Molecule type: double-stranded DNA, one strand shown
# Medium: in vitro
# Concentration: 250 nM
# Setting: 60-bp whole probe
# Added: salmon DNA 0.4 mg/ml
# Baseline: random background probes
# Reading: higher = stronger binding
# Shared flanks, not repeated: GCCTAGCAC … GTCTTGATTCGCTTGACGCTGCTG
# Target sequence (chain): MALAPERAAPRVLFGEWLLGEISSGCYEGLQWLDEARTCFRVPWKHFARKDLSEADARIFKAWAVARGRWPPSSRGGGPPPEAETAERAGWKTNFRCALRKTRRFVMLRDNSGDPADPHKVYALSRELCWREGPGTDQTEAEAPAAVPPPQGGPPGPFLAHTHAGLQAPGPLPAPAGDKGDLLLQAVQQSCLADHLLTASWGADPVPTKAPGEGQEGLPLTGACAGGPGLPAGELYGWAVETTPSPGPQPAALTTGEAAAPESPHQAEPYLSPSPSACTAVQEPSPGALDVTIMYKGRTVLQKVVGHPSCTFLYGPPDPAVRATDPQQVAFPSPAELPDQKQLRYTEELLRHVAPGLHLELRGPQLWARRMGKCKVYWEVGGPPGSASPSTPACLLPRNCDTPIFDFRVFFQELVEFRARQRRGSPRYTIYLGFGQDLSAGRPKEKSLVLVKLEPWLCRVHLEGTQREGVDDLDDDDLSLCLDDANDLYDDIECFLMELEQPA
Sequence,log fluorescence [z-score]
TTAGGACGGGGTATCGGTTAGTGCTAG,0.516
TTAGGTATCGGGACTGGGGTAGTGCTA,-0.131
GACGAACTGGGTTTCGGGACGTGCTAG,2.18
CTGGCTATTTTATATGCTATGGTGCTA,-0.319
GTCAAACTCACTCATGGCTTTGTGCTA,0.498
GACGGTATCGACTATCGGTACGTGCTA,0.127
TAATTTTCATTTTCCAAATGGTGCTAG,3.5
GACGGTCTCGGTTTCGGGCCGTGCTAG,6.09
ACTTTTTTCTGATTGAATCTGTGCTAG,3.34
GATGGACTGGACTTTCGGGACGTGCTA,-0.622
CTTTTTTTTTTTTTCTGATCGTGCTAG,1.8

# Single results of other studies
Substance,target,assay,system,conditions,how to read,endpoint,value
"PhoQ, residues 284 288 289 292 302 303 ALAMYF","PhoP, residues 12 14 15 18 19 LHHSG (Escherichia coli, UniProt P23836)","Sort-seq, refers to: YFP reporter",E. coli,"PhoQ-PhoP variant library, added: 10 µM Mg2+","baseline: high Mg2+ state, higher = stronger signaling",fold induction,7.85

# For quick reference, copied from above (series 3):
Sequence,log fluorescence [z-score]
CTGGCTATTTTATATGCTATGGTGCTA,-0.319
GTCAAACTCACTCATGGCTTTGTGCTA,0.498
GACGGTATCGACTATCGGTACGTGCTA,0.127
TAATTTTCATTTTCCAAATGGTGCTAG,3.5
